Measurements of several laboratories.
Parts stem from different laboratories: compare values within a part only. Substitutions count along the parent as printed.

Sample 1
Target: Histone acetyltransferase KAT6A, both winged helices, GST fusion (KAT6A, Homo sapiens, UniProt Q92794, residues 1-181)
Method: protein binding microarray
Molecule type: double-stranded DNA, one strand shown
Matrix: in vitro
Tested at: not given
Notes: 8-mer, flanks averaged, mean of 2 arrays, mostly near background
Reference: not given
Direction: higher = stronger binding
Quantity: E-score
Construct (chain): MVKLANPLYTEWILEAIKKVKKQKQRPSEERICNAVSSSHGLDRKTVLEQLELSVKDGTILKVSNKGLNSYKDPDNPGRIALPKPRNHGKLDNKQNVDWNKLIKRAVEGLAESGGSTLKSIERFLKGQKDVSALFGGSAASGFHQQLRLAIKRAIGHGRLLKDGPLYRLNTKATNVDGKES
AGGATGTG: -0.147
CAACCCCG: 0.112
GGCGAACA: 0.218
AGCACCTG: -0.299
TAGTCGGA: 0.161
AATAACTA: -0.00274
CAGCGCAG: 0.275
GATTCAAC: 0.0505
CACAAATC: -0.0184
AAACTGGG: -0.271
TCGGTCAA: 0.0959
ATTGAACG: 0.0169
CTCGGGCA: 0.0966
GCTCCAAA: -0.108
ATTAGGCC: -0.0266
AAATTTAT: -0.184
ACGCTATA: 0.124
ACGCTTGA: 0.14
GCAGCAAA: -0.102
TATTGTAA: 0.00746
TCCCGCAA: 0.194

Sample 2
Target: Fragile X messenger ribonucleoprotein 1, C-terminal low-complexity region (Fmr1, Mus musculus, UniProt P35922)
Method: RNA Bind-n-Seq
Molecule type: RNA
Matrix: in vitro
Tested at: 200 nM
Notes: whole 134-nt RNA, ends assumed
Added: 150 mM LiCl
Reference: input library
Direction: higher = stronger binding
Quantity: log2 enrichment
All molecules: 7-deaza-guanosine replaces G
All sequences stand within: GGGAGUUCUACAGUCCGACGAUC … UGGAAUUCUCGGGUGUCAAGG
GGUAUUCUGCAAGUACUGUAGAUGUUAUAGAAAUGAUGGAGGAUGAUAAAGUUGAUCUGAAUUUGAUUGUUGCCCUCAUCCGAUACAUUG: -1.13
GUCCUGUGCUACACAUCGUAUGUACCGAAUCGGGUUUUUUUGGGAAAAAGGGAAAGGGAAAGUAUUAUGUUACGCCGUUCGGAUCUGCAC: -1.84
UUCAUGAGGACCUCCGCCUGCUCUUGGAGACCCACCUGCCGUCCAAAAAGAAGAAAGUACUCUUGGGAGUUGGGGAUCCCAAGAUUGGUG: 0.741
UCCUGUGCUACACAUCGUAUGUACCGAAUCGGGGAAAAAAAGGGGAGGGGAAAAAGGGGAAAGUAUUAUGUUACGCCGUUCGGAUCUGCA: -0.661
UAACUUUAGAGGAGGAUCUGAUGGAUAUGGCAGUGGACGUGGAUUUGGGGAUGGCUAUAAUGGGUAAGGAGGAGGACCUGGAGGUGGCAA: 0.318
ACCAUGCAGGUGGGCAUCUUUGGGAAGGGGGGCAAGGGGGGGAUAGGGAGGGGGGUAACACUUUGGGAACAGGUGGUCCCAGGUCGUUUC: 1.09
CCUCAAGUCCUGUGCUACACAUCGUAUGUACCGAAUCGGGGUGGGUGGUGGGGAAAGUAUUAUGUUACGCCGUUCGGAUCUGCACUUCCA: -0.648
CAAGUCCUGUGCUACACAUCGUAUGUACCGAAUCGGAAAAAGGUUUUUUUGGUGGAAAGUAUUAUGUUACGCCGUUCGGAUCUGCACUUC: -2.12
GUCCUGUGCUACACAUCGUAUGUACCGAAUCGGAAAAAAGGAAAAAAGGGGAAAAAAGGAAAGUAUUAUGUUACGCCGUUCGGAUCUGCA: -0.0551
UCCUCAAGUCCUGUGCUACACAUCGUAUGUACCGAAUCGGGGCGGCGGCGGAAAGUAUUAUGUUACGCCGUUCGGAUCUGCACUUCCAGC: 0.00781
CCUCAAGUCCUGUGCUACACAUCGUAUGUACCGAAUCGGGGAGGAGGAGGGGAAAGUAUUAUGUUACGCCGUUCGGAUCUGCACUUCCAG: -0.0335

Sample 3
Target: RING finger protein unkempt homolog, zinc fingers 1-6, GST-SBP tag (UNK, Homo sapiens, UniProt Q9C0B0, residues 30-357)
Method: RNA Bind-n-Seq
Molecule type: RNA
Matrix: in vitro
Tested at: not given
Notes: RNA with constant flanks, human and mouse sites, ends assumed
Reference: input RNA pool
Direction: higher = stronger binding
Quantity: bound/input enrichment
All sequences stand within: GGGAGUUCUACAGUCCGACGAUC … CAACAGAGGAUUGAGCAUCA
Construct (chain): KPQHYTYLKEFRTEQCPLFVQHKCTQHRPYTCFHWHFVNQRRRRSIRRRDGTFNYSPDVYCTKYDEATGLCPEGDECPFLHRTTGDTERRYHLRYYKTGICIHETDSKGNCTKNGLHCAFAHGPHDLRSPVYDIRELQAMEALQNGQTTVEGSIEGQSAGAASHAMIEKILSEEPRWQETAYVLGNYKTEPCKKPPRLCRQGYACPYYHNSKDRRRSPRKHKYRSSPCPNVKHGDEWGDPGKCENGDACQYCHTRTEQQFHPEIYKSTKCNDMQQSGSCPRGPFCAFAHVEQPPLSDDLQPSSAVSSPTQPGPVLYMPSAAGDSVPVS
GGCAUGCAUGGAGGUGGUCCUGGUGGUCCUGGAGGUGGCCCCCACAGCUUCCCACACCCAUUACCCAGCCUGACAGGUGGGCAUGGUGGGCAUCCCAUGCAGCACAACCCAAAUGGACCA: 0.121 ratio
CUUCAAAAGCAUGUGGAGGAUCUGUUGACCAAAUUAAAAGAGGCCAAGGAACAACAGGCCAGUAUGGAAGAGAAAUUCCACAAUGAAUUAAAUGCCCACAUAAAACUUUCUAAUUUGUAC: 0.241 ratio
GUCAAAUUCAAACUACAGUACUGUGUAAUUAUGUAUAAAGUUUUUUUAUUUAUUUGAAGUUAGACUAGAUAUACGUUUUUAAAUUUAACAUCUGGCUGGACAGUGUUCUAUUAACUCAUU: 3.24 ratio
CGGCUGCUCAACCAGCAGCGUGAAUAUGAGGCGCAGCAGCAGUAUCGCCAGCACAUCCAGGUUUUCAUUGACCGGUUUCGCUACAAUGCCAACAGGGCCUCUCAAGUGCAGAGUAAACUC: 0.0735 ratio
ACCUGCUUCCUUGCCAAGAAGAUAGCAUCUUCUAAGGUUUUCCAUUAUUAUGGUCCUGCUUUGGAAUUUGUGCAGAUGAUAAAACUAUCAGAUCUUCCCUCCUGUUACAUGUCGGAUAUC: 0.294 ratio
UUUUCUAGGAUGUCUUCUGAGAUUGGAAGGGAAAAGAGUCAGGACUGGGGCUCUGCUGGACUAGGAGGAGUAUUUAAGGUGGAGUGGAUACGAAAAGAAAGCCUUCCCUUUCAAUUUGCA: 1.58 ratio
AAUCAGGCAUUUGGAAUGAAUAACUCCUUAUCAAGUAACAUUUUUAAUGGAACAGAUGGCAGUGAAAAUGUGACAGGAUUGGACCUUUCAGAUUUCCCAGCGUUAGCUGACCGGAAUAGA: 0.324 ratio
GAAGAUUUAUAUUUGCAAAGAGUAGCCGAACUGGACAAAAUUACUUCUGAAAGAGAUAAUUUUAGACAAGCAUAUGAAGAUCUUCGAAAACAAAGGCUGAAUGAAUUUAUGGCUGGUUUU: 0.798 ratio
UUGGUUAAUGUGUUAUUUAUUGAGUAUUGUUUGUGCUAAGCAUUGUGUUAGAUUUAAAAAAUUAGUGGAUUGACUCCACUUUGUUGUGUUGUUUUCAUUGUUGAAAAUAAAUAUAACUUU: 24.9 ratio
UCAAAGAAGACAGCAAUGGCUGCUGCCAAGGCCCCCACAAAGGCAGCACCUAAACAAAAGAUUGUGAAGCCUGUGAAGGUCUCUGCCCCCAGAGUUGGUGGGAAACGCUAGUGUGGUAGA: 0.39 ratio
AGCAGAUGCCCUCUUGCAGGGUGGAUGAGUCAGGCAGGCAGAACCUCCUUAAGUGGUCCACUUAGUGUUACCAGCAGACUGCAGACACUGCAGAGCAGGAACCUCACUCAGUACCUGUCU: 0.0475 ratio

Sample 4
Target: Sal-like protein 4, full length isoform B (SALL4, Homo sapiens, UniProt Q9UJQ4-2, residues 1-616)
Method: universal PBM
Molecule type: double-stranded DNA, one strand shown
Matrix: in vitro
Tested at: not given
Notes: 8-mer, flanks averaged, mean of replicates
Direction: higher = stronger binding
Quantity: E-score
GTTCTGGA: -0.00196
CATGTTCA: 0.141
AGCTCGTC: -0.277
CTTTACTC: 0.105
CCTGGTCG: -0.307
AAATTTTC: 0.232
ACTATTGG: 0.0584
CACCCTGA: -0.114
ACGCAGCA: -0.111
AAACCGGG: -0.287
CGTTGAGA: -0.16
GTTAATAA: 0.411
CTAAAACA: 0.136
AACTCGGG: -0.307
CAGGCAAG: -0.0614
AACATGGT: 0.096
AACCGCCT: -0.0673
CTCGCCCA: -0.141
CATGATAC: 0.172
CTTGGGGA: 0.0243
AAAATTAC: 0.352
AACTTATT: 0.318
CGACATCA: -0.0109
CGGTTTGA: -0.127
TAGCCTGA: -0.0896

Sample 5
Target: CCNE1, cyclin fold, Cln2 fusion (human)
Method: yeast growth competition, sequencing
Matrix: yeast
Notes: strong parent motif
Reference: not given
Direction: higher = stronger binding
Quantity: normalised enrichment score
Parent: RBL1 docking peptide (human); GSAKRRLFGEDPP
F8I: 0.636
D11Q: 5.3
G9R: 6.97
R5D: 0.476
L7R: 0.0891
R6T: 2.07
D11R: 3.74
P13W: 6.07
F8G: 0.15
S2V: 4.35
R5N: 0.505
L7D: -0.51
L7I: 2.68
E10Y: 4.08
G9N: 7.3
G1N: 6.44
E10F: 4.63
K4N: 1.81
F8S: 0.0382
P13C: 5.94
F8K: 0.824
F8N: -0.412
S2A: 5.24
P13S: 5.56
S2G: 6.21

Mixed results
PhoQ, residues 284 288 289 292 302 303 SASVAL
fold induction (PhoP, residues 12 14 15 18 19 IFFTR (Escherichia coli, UniProt P23836); Sort-seq, item: YFP reporter; E. coli; PhoQ-PhoP variant library, added: 10 µM Mg2+; reference: high Mg2+ state, higher = stronger signaling): 19.1
